Assay results from different studies.
Numbered parts are unrelated; each lists some results of a single study. Positions count from the first letter of the parent shown.
Sequence of UniProt O15294 (whole entry, looked up): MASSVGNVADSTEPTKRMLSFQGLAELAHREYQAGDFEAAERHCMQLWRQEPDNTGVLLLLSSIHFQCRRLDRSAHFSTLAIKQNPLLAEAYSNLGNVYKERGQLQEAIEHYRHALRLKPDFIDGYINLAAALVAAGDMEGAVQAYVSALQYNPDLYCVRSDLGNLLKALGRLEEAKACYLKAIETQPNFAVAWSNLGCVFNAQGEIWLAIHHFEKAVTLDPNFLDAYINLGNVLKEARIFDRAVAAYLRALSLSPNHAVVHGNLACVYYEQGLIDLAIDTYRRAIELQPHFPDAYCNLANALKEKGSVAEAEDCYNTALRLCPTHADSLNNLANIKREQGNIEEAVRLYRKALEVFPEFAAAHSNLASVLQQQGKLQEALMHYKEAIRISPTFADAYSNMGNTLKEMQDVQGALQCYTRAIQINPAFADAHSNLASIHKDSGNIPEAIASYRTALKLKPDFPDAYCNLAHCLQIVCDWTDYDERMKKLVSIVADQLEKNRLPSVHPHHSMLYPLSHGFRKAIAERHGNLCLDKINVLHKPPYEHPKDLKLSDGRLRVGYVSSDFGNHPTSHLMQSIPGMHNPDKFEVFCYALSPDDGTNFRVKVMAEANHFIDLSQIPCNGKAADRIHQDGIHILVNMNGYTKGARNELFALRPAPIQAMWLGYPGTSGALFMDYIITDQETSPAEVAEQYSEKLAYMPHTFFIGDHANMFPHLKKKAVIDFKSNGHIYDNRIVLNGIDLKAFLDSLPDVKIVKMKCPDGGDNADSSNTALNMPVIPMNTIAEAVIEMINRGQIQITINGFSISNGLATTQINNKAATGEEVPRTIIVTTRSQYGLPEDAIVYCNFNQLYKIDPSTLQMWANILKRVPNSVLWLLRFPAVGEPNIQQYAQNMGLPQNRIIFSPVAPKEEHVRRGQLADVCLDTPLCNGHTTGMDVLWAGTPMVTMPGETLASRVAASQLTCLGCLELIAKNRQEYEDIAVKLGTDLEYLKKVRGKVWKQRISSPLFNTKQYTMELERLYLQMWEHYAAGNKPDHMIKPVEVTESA

Block 1
Target: BATF2, bZIP domain (human)
Technique: DHFR protein complementation
Medium: yeast
Notes: single substitutions, most at no-binding floor
Baseline: wild-type JUN-FOS pair
Reading: higher = stronger binding
Endpoint: binding fitness
Starting sequence: JUN, bZIP domain (human); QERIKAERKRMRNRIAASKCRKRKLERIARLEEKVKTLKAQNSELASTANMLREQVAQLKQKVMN; partner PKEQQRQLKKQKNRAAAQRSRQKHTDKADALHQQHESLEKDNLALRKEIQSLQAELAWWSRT
Variant = E44W; result = -0.736 natural log
Variant = E44T; result = -0.537 natural log
Variant = A57W; result = -0.488 natural log
Variant = L31W; result = -0.572 natural log
Variant = A29W; result = -0.666 natural log
Variant = L45S; result = -1.41 natural log
Variant = S47P; result = -1.42 natural log
Variant = S43H; result = -0.277 natural log

Block 2
Target: Centromere-binding protein 1, full length, N-terminal tag (CBF1, Saccharomyces cerevisiae, UniProt P17106, residues 1-351)
Sequence of UniProt P17106 (whole entry, looked up): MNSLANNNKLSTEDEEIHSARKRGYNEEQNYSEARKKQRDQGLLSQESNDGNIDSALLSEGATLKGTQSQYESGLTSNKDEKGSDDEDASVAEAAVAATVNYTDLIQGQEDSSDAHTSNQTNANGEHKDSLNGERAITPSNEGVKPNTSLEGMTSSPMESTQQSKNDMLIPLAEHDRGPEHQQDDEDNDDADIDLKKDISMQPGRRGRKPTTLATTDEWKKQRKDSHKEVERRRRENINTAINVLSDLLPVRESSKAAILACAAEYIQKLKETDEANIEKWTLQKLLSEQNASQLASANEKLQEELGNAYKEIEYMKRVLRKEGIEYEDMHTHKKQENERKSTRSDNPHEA
Technique: protein-binding microarray
Molecule type: double-stranded DNA, one strand shown
Medium: in vitro
Tested at: 0.8 µM
Notes: whole 60-bp probe, no competitor
Reading: higher = stronger binding
Endpoint: fluorescence intensity
Shared flanks, not repeated: … GTCTTGATTCGCTTGACGCTGCTG
Strand = CTAGGATATTCACCACACCTGATTGGGAAGACTTTC; result = 691 a.u.
Strand = CTAGCAAATGCATTAGAGGTGGCGTTTTCCTCTTTC; result = 486 a.u.
Strand = CTACACGATAGATTACAGCTGACCAACTTAGAATTC; result = 600 a.u.
Strand = GAACATTTGCTGTCTGCTGATGTCAATTAATTGTAG; result = 946 a.u.
Strand = GAAAGATGATGATTTGACATGATGTTTCAATCATAG; result = 522 a.u.
Strand = GAACAATAGCTACGTGATATAATCTAAATAATTTAG; result = 621 a.u.
Strand = GAAATATCTAGAACTCACGTTATGATATATTCTTAG; result = 648 a.u.
Strand = CTAGATATGTCTTATTGCGTGATTTCACGGTGTTTC; result = 564 a.u.

Single results of other studies
Substance = HNRNPU (Homo sapiens, UniProt Q00839); target or system = GPKOW (Homo sapiens, UniProt Q92917); test = cross-linking MS; test system = cell fractions; setting = with: DSSO; endpoint = cross-linked residues; result = K551 to K178
Substance = TQGMHPQRPHHVGY; target or system = OGT (Homo sapiens, UniProt O15294); test = binding, phage display NGS; test system = peptide; setting = concentration not given; how to read = baseline: input library; endpoint = enrichment fold change; result = 4.41
Substance = PGRMC1 (Homo sapiens, UniProt O00264); target or system = RPN1 (Homo sapiens, UniProt P04843); test = cross-linking MS; setting = hits only; endpoint = interaction screen; result = cross-linked
Substance = PES1 (Homo sapiens, UniProt O00541); target or system = BOP1 (Homo sapiens, UniProt Q14137); test = cross-linking MS; test system = cell fractions; setting = with: DMTMM; endpoint = cross-linked residues; result = K121 to E287
Substance = TXLNA (Homo sapiens, UniProt P40222); target or system = C1orf122 (Homo sapiens, UniProt Q6ZSJ8); test = cross-linking MS; test system = cell fractions; setting = with: DSSO; endpoint = cross-linked residues; result = K364 to K21

A few entries again (block 1):
Variant = E44T; result = -0.537 natural log
